Experimental data collected from several papers.
Lines come from different studies, so protocols differ.

| SMILES | assay | test system | conditions | quantity | result |
| --- | --- | --- | --- | --- | --- |
| CN1CCN(c2cccc3c2CCN(C(=O)/C=C/c2c(-n4cnnn4)ccc(Cl)c2F)[C@@H]3C(=O)Nc2ccc(C(=O)O)cc2)C(=O)C1 | – | healthy human subjects | intravenous infusion, 10 mg/h, 2 h | subjects with treatment-related adverse event | 0% |
| Cc1cc(Nc2cc3ncccc3c(N[C@@H]3C[C@H]4CC[C@@H](C3)N4CCC#N)n2)n[nH]1 | – | healthy human | oral, 30 mg single dose, 2 weeks | subjects with epistaxis | 0% |
| C[C@H]1CN(C(=O)CC#N)[C@]12CCN(c1ncnc3[nH]ccc13)C2 | – | healthy human | oral, 3 mg single | subjects withdrawn for AEs | 0% |
| CC(C)(C(=O)N1CCOc2c(C#N)cncc2C1)C(F)F | measured: Conjunctivitis | human | oral, 15 mg twice daily, 14 days, multiple ascending dose | subjects with adverse event | 0% |
| CNC(=O)c1ccc(-c2cnc3ncc(Cc4ccc5ncccc5c4)n3n2)cc1F | – | healthy human subjects | oral, 200 mg, Insomnia, all grades, all causality, with: itraconazole 200 mg/day | subjects with adverse event | 7.4% |
| CC(C)n1c(Nc2cccnc2)nc2cnc(Nc3ccc(N4CCN(C)CC4)cc3)nc21 | measured: white blood cell count elevated | healthy human, male | oral, dose not given, CTCAE grade 1-3 | subjects with TEAE | 2.4% |
| C[C@@H](Oc1ccc(S(C)(=O)=O)cc1C(=O)N1C[C@@H]2C[C@]2(c2cc(C(F)(F)F)on2)C1)C(F)(F)F | – | human | oral plus intravenous microtracer, dose not given | subjects with related diarrhoea | 0% |
| Cc1cc(-c2nccc3c2ccn3CC(=O)Nc2ccc(-c3cnccn3)cn2)ccn1 | – | human | 5 mg once daily, multiple ascending dose | subjects with breath odour | 0% |
